{"data": "Measurements gathered from unrelated publications", "note": "Numbered parts are unrelated; each lists some results of a single study. Positions count from the first letter of the parent shown."}
{"data": "Series 1", "target": "RING finger protein unkempt homolog, zinc fingers 1-6, SBP tag (UNK, Homo sapiens, UniProt Q9C0B0, residues 30-357)", "technique": "RNA Bind-n-Seq", "form": "RNA", "medium": "in vitro", "concentration": "100 nM", "setting": "RNA with constant flanks, vertebrate orthologous sites, ends assumed", "baseline": "input RNA pool", "direction": "higher = stronger binding", "shared flanks, not repeated": "GGGAGUUCUACAGUCCGACGAUC … CAACAGAGGAUUGAGCAUCA", "UniProt Q9C0B0, sequence (30-357, looked up)": "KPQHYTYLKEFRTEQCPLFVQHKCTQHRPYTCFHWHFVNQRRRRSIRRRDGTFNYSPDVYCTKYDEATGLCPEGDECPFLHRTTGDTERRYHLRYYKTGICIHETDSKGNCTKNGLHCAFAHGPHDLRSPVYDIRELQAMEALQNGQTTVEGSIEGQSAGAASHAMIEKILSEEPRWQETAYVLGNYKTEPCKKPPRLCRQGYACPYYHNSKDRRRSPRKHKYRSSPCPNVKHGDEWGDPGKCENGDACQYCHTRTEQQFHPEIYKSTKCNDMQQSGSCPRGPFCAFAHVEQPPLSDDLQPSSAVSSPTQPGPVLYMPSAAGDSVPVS"}
{"Oligonucleotide": "AGGGAUGGCCCCCAAUCCCACUUCUGUUUAUUCUGUAAACUACAACCUGUAAAUAACGUUUAGCAUUCCUAUUGUAACAAAAUUAAUUUUUAUGAAAUAAAUUAUAUUUCCUAGUCUAAU", "bound/input enrichment [ratio]": 1.5}
{"Oligonucleotide": "AUAGUUAUGUUGUUAGUUAUAUGGAAUGACCUUGAUCCUGAGUUCGCUUCCUCAGUAACGUAGAUUUCAUUUCUAUUCCUGCACUUUUAGUGAUGUCAAUAAAUAGAAGGUUUGUGUCAG", "bound/input enrichment [ratio]": 1.24}
{"Oligonucleotide": "CAGCUGAUUCACUCAUUGGCAGAGCUGCACAUAUAGCUGUUCUUGAUUCAGAAAUAUUUUUAGAAAAAUUCUUUCUGGUUGCUGCCCUCAAAUAUUUCCAGUAGGAUAAAACAUUGUUAA", "bound/input enrichment [ratio]": 0.983}
{"Oligonucleotide": "GUAGUUUGUUUCUAAUUUCAAGCAAAAAAUCUUAUUGUACUUGAAUGUGUCCUGUUUUGUUAGCACACCUAGACUUGCUGUAACUGUACUCAUGUCCCAGUAUGUACGUUCUUUCUAUGA", "bound/input enrichment [ratio]": 0.802}
{"Oligonucleotide": "GAAGAGCUGAGGGGAGUAAGGCCGUGAUUCCUCAGAGGGUUUUUCCUUGUUUUUAGUUUGCUAGGGGUUGGGUGGGUUGUGGUACACACCUUCUCGGAGGCGGGAGCUCUAGUGAUACCU", "bound/input enrichment [ratio]": 3.94}
{"Oligonucleotide": "AUUGAACAAAAGCGUUUCCACUGGGUUUCGCCUGUAAGAAAAAAAACAUACCCGAGCACAUACAGCUUUUUAAUAGCACUAACCAAUGCCUUUUUAGAUGUAUUUUUGAUGUAUAUAUCU", "bound/input enrichment [ratio]": 0.706}
{"Oligonucleotide": "GGGACGUUUUGAUGUAAAAAUUGAAGUUAAGAGCUGAUCACAAGCACAAAUCUUUCCCACUAGCCAUUUAAUAAGUUAAAAAGAUACAGAAACAAAAACCUACUAGUCUUGAACAAACUG", "bound/input enrichment [ratio]": 1.8}
{"Oligonucleotide": "UUUGUUUCUAAUUUCAAGCAAAAAAAAAAUCUUAUUGUACUUGAAUGUGUCCUGUUUUGUUAGCACACCUAGACUUGCUGUAACUGUACUCAUGUCCCAGUAUGUACGUUCUUUCUAUGA", "bound/input enrichment [ratio]": 0.526}
{"data": "Series 2", "target": "ABI1, truncated, D143A, DHFR fusion (Arabidopsis thaliana)", "technique": "DHFR PCA, deep sequencing", "medium": "yeast", "setting": "methotrexate growth selection, single substitutions", "together with": "(+)-ABA 0.11 µM", "baseline": "wild-type fitted maximum", "direction": "higher = stronger binding", "starting sequence": "PYL1, truncated, DHFR fusion (Arabidopsis thaliana); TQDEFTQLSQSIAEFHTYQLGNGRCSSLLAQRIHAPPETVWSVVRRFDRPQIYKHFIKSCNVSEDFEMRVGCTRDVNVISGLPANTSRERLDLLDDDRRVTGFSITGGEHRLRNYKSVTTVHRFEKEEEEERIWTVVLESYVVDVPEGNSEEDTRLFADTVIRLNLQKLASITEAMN"}
{"Change": "F124C", "relative binding score [%]": 25}
{"Change": "R45H", "relative binding score [%]": -7.25}
{"Change": "P83L", "relative binding score [%]": 3.52}
{"Change": "G23F", "relative binding score [%]": -4.71}
{"data": "Series 3", "target": "CCND1, cyclin fold, Cln2 fusion (human)", "technique": "yeast growth competition, sequencing", "medium": "yeast", "setting": "weak parent motif", "baseline": "not given", "direction": "higher = stronger binding", "starting sequence": "HASPIN docking peptide (human); ASLRSVLFGLMNS; partner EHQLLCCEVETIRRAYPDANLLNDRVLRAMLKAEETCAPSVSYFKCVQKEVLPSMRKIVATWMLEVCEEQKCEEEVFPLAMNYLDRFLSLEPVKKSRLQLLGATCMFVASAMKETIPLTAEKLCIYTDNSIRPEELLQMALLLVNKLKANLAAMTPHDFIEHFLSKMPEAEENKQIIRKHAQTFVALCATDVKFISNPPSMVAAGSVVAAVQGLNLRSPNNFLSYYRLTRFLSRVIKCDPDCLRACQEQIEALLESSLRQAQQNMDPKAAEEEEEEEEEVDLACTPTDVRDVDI"}
{"Change": "M11A", "normalised enrichment score": 0.988}
{"Change": "S5A", "normalised enrichment score": 0.675}
{"Change": "G9A", "normalised enrichment score": 0.468}
{"Change": "R4A", "normalised enrichment score": -0.581}
{"Change": "S2A", "normalised enrichment score": 0.158}
{"Change": "L3A", "normalised enrichment score": 0.313}
{"data": "Mixed results"}
{"Substance": "PhoQ, residues 284 288 289 292 302 303 SLCLSL", "target": "PhoP, residues 12 14 15 18 19 IQSYL (Escherichia coli, UniProt P23836)", "test": "Sort-seq, item: YFP reporter", "system": "E. coli", "conditions": "PhoQ-PhoP variant library, together with: 10 µM Mg2+", "how to read": "baseline: high Mg2+ state, higher = stronger signaling", "endpoint": "fold induction", "result": 37}
{"note": "A few entries again (series 1):"}
{"Oligonucleotide": "UUUGUUUCUAAUUUCAAGCAAAAAAAAAAUCUUAUUGUACUUGAAUGUGUCCUGUUUUGUUAGCACACCUAGACUUGCUGUAACUGUACUCAUGUCCCAGUAUGUACGUUCUUUCUAUGA", "bound/input enrichment [ratio]": 0.526}
{"Oligonucleotide": "GGGACGUUUUGAUGUAAAAAUUGAAGUUAAGAGCUGAUCACAAGCACAAAUCUUUCCCACUAGCCAUUUAAUAAGUUAAAAAGAUACAGAAACAAAAACCUACUAGUCUUGAACAAACUG", "bound/input enrichment [ratio]": 1.8}
{"Oligonucleotide": "AGGGAUGGCCCCCAAUCCCACUUCUGUUUAUUCUGUAAACUACAACCUGUAAAUAACGUUUAGCAUUCCUAUUGUAACAAAAUUAAUUUUUAUGAAAUAAAUUAUAUUUCCUAGUCUAAU", "bound/input enrichment [ratio]": 1.5}
